Assay results from different studies.
Each line is one published result; not all experiments were run side by side. ± gives the spread as reported.
TDP1: Tyrosyl-DNA phosphodiesterase 1 (TDP1, Homo sapiens, UniProt Q9NUW8)
UniProt Q9NUW8, sequence (whole entry, looked up): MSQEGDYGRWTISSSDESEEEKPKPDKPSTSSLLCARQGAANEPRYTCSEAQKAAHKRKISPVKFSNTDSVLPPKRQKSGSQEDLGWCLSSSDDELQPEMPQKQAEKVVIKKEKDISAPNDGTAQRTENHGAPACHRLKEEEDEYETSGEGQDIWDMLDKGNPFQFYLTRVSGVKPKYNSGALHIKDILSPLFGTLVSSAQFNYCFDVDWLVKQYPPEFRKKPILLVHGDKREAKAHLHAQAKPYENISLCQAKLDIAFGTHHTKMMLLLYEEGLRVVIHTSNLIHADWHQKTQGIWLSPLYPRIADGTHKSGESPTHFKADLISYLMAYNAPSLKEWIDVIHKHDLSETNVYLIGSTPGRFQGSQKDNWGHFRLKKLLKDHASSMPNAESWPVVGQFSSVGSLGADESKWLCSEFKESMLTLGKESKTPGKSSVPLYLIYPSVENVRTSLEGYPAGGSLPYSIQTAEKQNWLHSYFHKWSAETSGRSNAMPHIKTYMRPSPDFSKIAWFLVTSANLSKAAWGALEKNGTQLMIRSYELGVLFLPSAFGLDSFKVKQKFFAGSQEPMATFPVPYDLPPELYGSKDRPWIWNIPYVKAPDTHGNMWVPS

| Structure (SMILES) | tested on | assay | conditions | measurement | result |
| --- | --- | --- | --- | --- | --- |
| COc1ccc(NC(=O)Nc2cccc(C(=O)N3CCC(C)CC3)c2)cc1 | HepG2 | cell growth or viability, MTT | 100 µM | viability | 91.2% |
| COc1cc(Oc2c(OC)cc(C)c(Br)c2O)c(C(=O)O)c(C)c1O | HepG2 | MTT | 10 or 50 µM, 48 h | viability | 115 ± 34.7% |
| CC1CCN(C(=O)c2cccc(NC(=O)Nc3cc(Cl)cc(Cl)c3)c2)CC1 | HepG2 | cell growth or viability, MTT | 100 µM | viability | 122% |
| CN(C)/C=C/c1c(C=NOCc2ccc3nc(-c4ccccc4)c(Nc4ccc(C(=O)O)cc4)n3c2)c2cc([N+](=O)[O-])ccc2n1C | TDP1 | enzyme activity, inhibitor | 100 µM, unpurified compound | inhibition | 98.5% |
| c1cc2nc(c1)-c1cccc(n1)CCCc1ccc(cc1)OCCCCCCOc1ccc(cc1)CCC2 | HepG2 | cell growth or viability, MTT | 200 µM, 24 h | viability | 75.4% |
| COc1cc(NC(=O)Nc2cccc(C(=O)N3CCC(C)CC3)c2)cc(OC)c1 | HepG2 | cell growth or viability, MTT | 100 µM | viability | 82.9% |
| CC[C@H](C)[C@@H](C(=O)N[C@@H](Cc1ccc(O)cc1)C(=O)N1CCC[C@H]1C(=O)N[C@@H](Cc1ccccc1)C(=O)O)n1cc(C(Cc2ccc(O)cc2)NC(=O)[C@@H](NC(=O)[C@H](CCCNC(=N)N)NC(=O)[C@@H](N)CC(=O)O)C(C)C)nn1 (stereo partly drawn) | HepG2 | cell growth or viability, MTT | 12.5 µM, 24 h | viability | 94% |
| COc1cc(Oc2c(O)cc(C)c(Br)c2OC)c(C(=O)O)c(C)c1O | HepG2 | MTT | 10 or 50 µM, 48 h | viability | 136 ± 19% |
| COc1ccc2c(c1)c1c(n2CO)CN2CCc3cc(OCc4cccc(F)c4)c(OC)cc3C2C1 (stereo not drawn) | HepG2 | cell growth or viability | 5 µM, 24 h | viability | 105% |
| Cc1ccc(C=NOCc2ccc3nc(-c4ccccc4)c(Nc4ccc(C(=O)O)cc4)n3c2)cc1[N+](=O)[O-] (mixture of isomers) | TDP1 | enzyme activity, inhibitor | 100 µM, unpurified compound | inhibition | 25.8% |
| COc1ccc2c(c1)c1c(n2CO)CN2CCc3cc(OC)c(OCc4ccccc4)cc3C2C1 (stereo not drawn) | HepG2 | cell growth or viability | 10 µM, 24 h | viability | 109% |
| C=CS(=O)(=O)c1ccccc1 | HepG2 | cell growth or viability, MTT | 12.5 µg/mL, 24 h | viability | 30 to 40% |

A few entries again:
| Structure (SMILES) | tested on | assay | conditions | measurement | result |
| --- | --- | --- | --- | --- | --- |
| COc1ccc2c(c1)c1c(n2CO)CN2CCc3cc(OC)c(OCc4ccccc4)cc3C2C1 (stereo not drawn) | HepG2 | cell growth or viability | 10 µM, 24 h | viability | 109% |
